Experimental data pooled from the literature.
Parts stem from different laboratories: compare values within a part only.

Set 1
Target: Histone acetyltransferase KAT6A, both winged helices, GST fusion (KAT6A, Homo sapiens, UniProt Q92794, residues 1-181)
Technique: protein binding microarray
Form: double-stranded DNA, one strand shown
Medium: in vitro
Concentration: not given
Setting: 8-mer, flanks averaged, mean of 2 arrays, mostly near background
Baseline: not given
Direction: higher = stronger binding
Construct (chain): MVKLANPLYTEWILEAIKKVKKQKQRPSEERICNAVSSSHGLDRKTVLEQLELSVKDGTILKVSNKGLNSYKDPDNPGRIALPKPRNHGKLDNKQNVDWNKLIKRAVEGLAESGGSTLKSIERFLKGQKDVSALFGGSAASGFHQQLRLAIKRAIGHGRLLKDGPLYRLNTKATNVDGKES
Oligonucleotide	E-score
TTCCAAAA	-0.265
CTGACAGC	0.00436
CCTAGCCC	-0.165
GTATAAGA	-0.168
GAGGCCCC	-0.088
CTGCATTA	-0.0366
CTAGGTAA	-0.125
ACTAACAG	-0.0626
ACGTAACT	-0.0558
GGGTGACC	0.159
AACGTAAT	-0.111
AATTAGAC	-0.168
GAGTATTA	-0.0549
GAAAAACA	-0.0402
GGTGACGA	-0.0571
CCAGAGGA	-0.206
TAACTGAA	-0.138
CACCCCTA	-0.228

Set 2
Target: RNA binding protein fox-1 homolog 2, RRM domain, GST-SBP tag (RBFOX2, Homo sapiens, UniProt O43251-10, residues 100-194)
Technique: RNA Bind-n-Seq
Form: RNA
Medium: in vitro
Concentration: 365 nM
Setting: natural RNA segment, single round, ends assumed
Baseline: no-protein control
Direction: higher = stronger binding
All sequences stand within: GGGAGUUCUACAGUCCGACGAUC … UGGAAUUCUCGGGUGCCAA
Residues (chain): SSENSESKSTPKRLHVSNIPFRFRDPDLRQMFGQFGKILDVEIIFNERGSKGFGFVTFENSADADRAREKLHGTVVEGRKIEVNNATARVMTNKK
Oligonucleotide	RBNS enrichment (R)
ACUUCUUGUCUGAGACAGAAAAAUUUCCUACUACAGCAGUGCAGUCCAGAGGUUAAGAUGUAUUAGAAUUAUACAAUAUCAGUUUAAAAAUCUGUAUGCAUAAAGAAUGC	0.373
AGCACCUGCCUUUCCCUCCUGGGUCUCCUUGCCGCGUGCUGAGCCGAGGCAGGCCUGCAGGGCCUGGGCUACACCAUCCUGCCAGUGUCUCCCUCUCAGUGUCUCCCUCU	0.345
CCUCCCACCUCUCUCCAGGCUGGUGUUGACUGGGCCCGGAAAUCAAUCCCCAGCACUUACUUCUCACUGCAAAGGAGCAAAACAACAAAAACAGCAAGACCAGAAGUGCC	0.457
GCUAAUUGUACAUAUCAAUAUACAUUUAAAAUCUGGUAACACUGGUUAAAUAGCCCUUGAUGACUUUUCAUGUGGCAUGAGAGGGAUAUGCUUAUAAAGCUUAAUUCUGA	0.492
AGGCUCCAAGGAGCAUUGGAGAGAAUGCCCCUUUCUGGGCUUGAUGUCUUGGUUUUGGUUUAAUACCAAAUUUCUCUUGGUCUUGGUUUAAUACCCGACUCCUCCCAAAU	0.411
GCAGCCUAGGGGGCACUGCCCUACAGAAAAGGUCUGCCUGAGAGGCCUGAGGAGCCCAGAGCACUUGACUGAGCUUCCCGGAAACUGGCCCUAACCUGUCUGUCUCCGUG	0.164
UAUUAACGAGAUGGCCCUGGCAGGCGGGAACAAAUCUGCCUCCAUGCACUGCUUCCUGUAGUCUUUUAGAAAGUAACUCCAGGACAUCGAAGUGCCCAGAUUUGACUCCU	0.258
UUGGUAUGUGGCCAUAUUUAUAGAAUGCUGAACUCAAUGUGCAAGUUGUACUGUAUGCAGUUUUGUAAAUAAGUGAAAAUAAUUUGUUGUACUUUUUAUUCAAUUCUGUA	1.12
UAGUUAAGAGUGGGGUCACCCCUUUAACUCCAAGCACUACAUUUUGGCGGCUGCCGGCCUCUGGGGGAGGUGGCAGUUAUGCUGUUACUAGUGAUUUUAGGGCUUUGUUA	0.552
AAAAUCUUACAGACUAGCUUUAGGAACAUAGUGUCAAACAAAGCUGCUGCUUUAGUCUUCUUUUCUUUGAUGCUUUGUUUAGAUGUUUAUAAGAAAUAGGUUUAUUUUUC	0.435
CUCUUGGAGCUCCUGGCGCUCCCCACCCGGUGUCCCCAGUGGAAGGGAUGGGGUGAAGCCCAGAGUGGGGGGGGGCAAGGUGUUCUCCCUCUGCAAGUGGAAUGUUACCC	2.66
UUAUUUCUGAGCAAAGCAUCGGUCAUGUGUGUAUUUUUUCAUAGUCCCACCUUGGAGCAUUUAUGUAGACAUUGUAAAUAAAUUUUGUGCAAAAAGGACUGGAAAAAUGA	1.34

Set 3
Target: Prothrombin, mature alpha-thrombin (F2, Homo sapiens, UniProt P00734)
Technique: aptamer microarray, sandwich
Form: DNA with 2'F-ANA
Medium: in vitro
Concentration: 200 nM
Setting: whole 15-mer aptamer, many near background
Together with: Cy3 exosite-II aptamer, 400 nM
Direction: higher = stronger binding
Oligonucleotide: GGTTGGTGTGGTTGG
Modification	mean fluorescence intensity
2'F-ANA at 2 4 5 6 8 11 12 14 15	60 a.u.
2'F-ANA at 1 2 6 8 10 11 12 13	59 a.u.
2'F-ANA at 1 3 5 9 10 13 14 15	48.4 a.u.
2'F-ANA at 2 3 6 7 8 9 11 12 14 15	325 a.u.
2'F-ANA at 1 2 3 8 9 10 12 14 15	58.1 a.u.
2'F-ANA at 1 2 3 4 5 9 12 13 15	87.6 a.u.
2'F-ANA at 3 5 7 8 10 11 13 15	62.4 a.u.
2'F-ANA at 1 2 3 4 6 7 9 11 13 14 15	55.2 a.u.
2'F-ANA at 2 6 8 9 10 11 14 15	80 a.u.
2'F-ANA at 1 2 5 8 9 11 14	59 a.u.
2'F-ANA at 4 6 7 8 9 10 15	130 a.u.
2'F-ANA at 1 6 7 9 10 11 12 14	45 a.u.
2'F-ANA at 3 4 6 7 8 10 11 15	214 a.u.
2'F-ANA at 1 2 3 5 8 9 14 15	48.2 a.u.
2'F-ANA at 1 7 10 11 15	50.4 a.u.
2'F-ANA at 8 10 12 13 14	113 a.u.
2'F-ANA at 8 9 10 11 15	162 a.u.
2'F-ANA at 4 5 6 9 13 14 15	46.8 a.u.
2'F-ANA at 2 4 9 11 12 13	338 a.u.
2'F-ANA at 4 6 7 9 10 13 15	66.6 a.u.
2'F-ANA at 1 4 6 7 10 12 14 15	56.8 a.u.
2'F-ANA at 1 3 4 5 11 12 13 14 15	48.8 a.u.
2'F-ANA at 1 4 7 9 10 12	56.6 a.u.
2'F-ANA at 3 6 7 9 11 12 13 14 15	530 a.u.
2'F-ANA at 1 2 3 5 7 9 10 11 15	45.8 a.u.

Set 4
Target: Hepatocyte nuclear factor 3-alpha (Foxa1, Mus musculus, UniProt P35582, residues 1-468, full length assumed)
Technique: EMSA with sequencing
Form: double-stranded DNA, one strand shown
Medium: in vitro
Concentration: 10 and 20 nM
Setting: whole designed probe, mean of two concentrations, ends assumed
Baseline: negative control set to 0
Direction: higher = stronger binding
All sequences stand within: GTGAGCGGTGCCCATTGATGGGGAAC … TTTCACTGGGATCGTGGGGAC
Residues (chain): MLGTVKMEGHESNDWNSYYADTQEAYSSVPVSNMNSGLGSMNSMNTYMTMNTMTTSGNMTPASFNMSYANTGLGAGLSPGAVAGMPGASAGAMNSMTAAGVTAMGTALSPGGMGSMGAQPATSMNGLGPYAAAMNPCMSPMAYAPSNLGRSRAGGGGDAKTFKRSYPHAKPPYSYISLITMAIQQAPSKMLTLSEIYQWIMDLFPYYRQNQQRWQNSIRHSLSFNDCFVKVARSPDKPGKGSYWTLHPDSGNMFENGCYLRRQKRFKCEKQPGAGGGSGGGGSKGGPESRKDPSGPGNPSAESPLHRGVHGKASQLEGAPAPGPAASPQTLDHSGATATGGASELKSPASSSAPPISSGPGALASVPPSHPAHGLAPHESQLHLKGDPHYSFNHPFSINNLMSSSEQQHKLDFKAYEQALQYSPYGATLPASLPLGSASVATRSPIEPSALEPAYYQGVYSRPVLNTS
Oligonucleotide	normalised bound fraction [ratio]
TATTGGCATAAGGTTTATAATAGGATCTTGATGAACAGAAATACTGTACACTATTCTTAATTGTAATGTTCATGTCAACGGAGTGCATTAAGAGTAATTTTTAGCTAGAAACATGGTAACTTGTTCCTCTACATGAAACACAAACAGGACAGAGATGGAAATCACTGGTCATAGCAAAAGGACCAAACTTTAG	0.0384
ATGAAGGGCTGCCAGTGTAATTTGAACCTCAAATAAACAACAGATAAAACTGTAGTATAAGTATGTCCCATATACATTGCACAACGATCTTTTTGTTTGCCTAATCTGGCAAAGATATTGACTTAACACACACTAATCTGTTGACAGGTAGGTGAAATATTTGAACTTCTACGTTGCTTCTCTAATCCTGTCC	0.391
TTGACCACTCTTCAAGTTCAATGACCACATTAAATCCTGAAGAATATTCATCTTTGCCTTTGGAATCATTTGTCCAGACTTCATCATCATCTAAGTAATCTTCACCTTCAGACCCTTACCAGGAGAAAAGGCATGAGCTGGCTGTCTAAAAGGGCCCATCAAATGGGGAGAAATCACCATGTTCTAAAAGGGA	-0.0922
CCACCGCGCCTGGCCGAGAGCTCAGCGTTTTAAAACCTATAGTAGGCTGTTTTTTTCACGTCAATGTCAAATGTTTGTGTCTGTTTTTCAAAGGTAATTTAGAAGTCTGTTGTCTGTTGCAGTCTGAACTCTAGAGTGTAAGATCTGACATATCAAAGGCAAGAGTAAAAAGAGAAGGTGGTGCATGCATGTA	-0.0553
TCGGCCAGCCTGGCTTCTGCGCCCCGCCAGGAGGTCGCGGAGCGGAGCGCGGCCAGGAAGTGAGCTGAGAATGACTCATTCCCCCACGCTGTTTGTTTATTCATGTCACATTCTCTCCACACACTGGCTCTTCTTTCTTTCGGGAGGAGGGGAGAAAGGAGCGGGAGGGCGGGCGGGCAGGGGAGAGGCAGGC	0.362
ATCTTCCCCCTCTTCCTTGCCCCACCAGCTCACCTTCCCGGGTTATTTGCAGATAGGAAAATAAATAAAGCCGGCATTCGTTAACCCTCTTCTGGCGCAAACTTCAGTGCTCGTGTGAGTTTACATGGTCCTTTGGCGACGCCAGGCTCCGGGAGAGCAAAGCACCGTGTCAGGGCCATGATCCGGGGTGGCC	0.347
ATCTTCCCCCTCTTCCTTGCCCCACCAGCTCACCTTCCCGGGTTATTTGCAGATAGGAAAATAAATAAAGCCGGCATTCGTTAACCCTCTTCACGCGCATACTGCTGTTTGCTCTGGATGAATCATGGTCCTTTGGCGACGCCAGGCTCCGGGAGAGCAAAGCACCGTGTCAGGGCCATGATCCGGGCTCGCC	0.341
GTTTTTGTAACTTGGTACTTAAAGACTCATGTTCAACATACTTGTGCTATATACTAAATAGCTTATCATTATAAAATGTACTTGTATGTACTTGTTTACTTTTTCTTATCTGATAATAGTATTGAGATTCTTTCTTCCTTTCATTTATTTTTTTAAGCCTTCACTTACATGGAGTGTCCACTTATTGTTATGT	0.415

For quick reference, copied from above (set 3):
Modification	mean fluorescence intensity
2'F-ANA at 3 5 7 8 10 11 13 15	62.4 a.u.
2'F-ANA at 1 2 3 4 6 7 9 11 13 14 15	55.2 a.u.
2'F-ANA at 2 6 8 9 10 11 14 15	80 a.u.
2'F-ANA at 1 2 5 8 9 11 14	59 a.u.
2'F-ANA at 4 6 7 8 9 10 15	130 a.u.
2'F-ANA at 1 6 7 9 10 11 12 14	45 a.u.
2'F-ANA at 3 4 6 7 8 10 11 15	214 a.u.
2'F-ANA at 1 2 3 5 8 9 14 15	48.2 a.u.
2'F-ANA at 1 7 10 11 15	50.4 a.u.
2'F-ANA at 8 10 12 13 14	113 a.u.
